Assay results of several laboratories.
Each numbered part is a random draw from the data of one study; scales do not carry over between parts.
Sequence of UniProt Q9NRM7 (whole entry, looked up): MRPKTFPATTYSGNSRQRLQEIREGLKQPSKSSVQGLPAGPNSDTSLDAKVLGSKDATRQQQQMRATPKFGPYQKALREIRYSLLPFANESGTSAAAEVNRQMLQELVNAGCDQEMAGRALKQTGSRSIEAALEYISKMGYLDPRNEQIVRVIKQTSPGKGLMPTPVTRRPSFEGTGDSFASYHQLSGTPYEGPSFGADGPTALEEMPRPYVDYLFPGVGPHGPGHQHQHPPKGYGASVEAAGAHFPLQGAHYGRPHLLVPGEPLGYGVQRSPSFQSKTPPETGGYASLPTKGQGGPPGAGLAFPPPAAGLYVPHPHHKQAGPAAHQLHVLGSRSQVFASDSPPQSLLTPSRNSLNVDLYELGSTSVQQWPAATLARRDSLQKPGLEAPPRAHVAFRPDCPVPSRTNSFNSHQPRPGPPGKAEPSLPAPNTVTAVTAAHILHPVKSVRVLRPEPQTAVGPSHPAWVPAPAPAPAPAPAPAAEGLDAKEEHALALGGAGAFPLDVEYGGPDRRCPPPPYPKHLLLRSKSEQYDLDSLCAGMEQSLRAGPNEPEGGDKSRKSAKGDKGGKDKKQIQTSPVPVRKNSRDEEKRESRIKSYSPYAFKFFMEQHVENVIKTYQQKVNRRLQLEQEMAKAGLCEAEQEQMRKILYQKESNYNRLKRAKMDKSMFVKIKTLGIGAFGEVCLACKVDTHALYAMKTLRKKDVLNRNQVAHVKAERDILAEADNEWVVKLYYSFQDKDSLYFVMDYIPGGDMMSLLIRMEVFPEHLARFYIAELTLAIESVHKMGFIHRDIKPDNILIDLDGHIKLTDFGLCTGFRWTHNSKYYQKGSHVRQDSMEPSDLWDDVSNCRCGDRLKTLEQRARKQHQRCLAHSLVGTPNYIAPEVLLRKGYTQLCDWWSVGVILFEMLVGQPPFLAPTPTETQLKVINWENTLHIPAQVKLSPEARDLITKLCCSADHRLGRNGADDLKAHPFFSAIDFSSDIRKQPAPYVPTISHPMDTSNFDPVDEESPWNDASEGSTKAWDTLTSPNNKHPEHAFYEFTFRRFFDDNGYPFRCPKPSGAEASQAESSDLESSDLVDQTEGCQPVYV
Sequence of UniProt Q13464 (whole entry, looked up): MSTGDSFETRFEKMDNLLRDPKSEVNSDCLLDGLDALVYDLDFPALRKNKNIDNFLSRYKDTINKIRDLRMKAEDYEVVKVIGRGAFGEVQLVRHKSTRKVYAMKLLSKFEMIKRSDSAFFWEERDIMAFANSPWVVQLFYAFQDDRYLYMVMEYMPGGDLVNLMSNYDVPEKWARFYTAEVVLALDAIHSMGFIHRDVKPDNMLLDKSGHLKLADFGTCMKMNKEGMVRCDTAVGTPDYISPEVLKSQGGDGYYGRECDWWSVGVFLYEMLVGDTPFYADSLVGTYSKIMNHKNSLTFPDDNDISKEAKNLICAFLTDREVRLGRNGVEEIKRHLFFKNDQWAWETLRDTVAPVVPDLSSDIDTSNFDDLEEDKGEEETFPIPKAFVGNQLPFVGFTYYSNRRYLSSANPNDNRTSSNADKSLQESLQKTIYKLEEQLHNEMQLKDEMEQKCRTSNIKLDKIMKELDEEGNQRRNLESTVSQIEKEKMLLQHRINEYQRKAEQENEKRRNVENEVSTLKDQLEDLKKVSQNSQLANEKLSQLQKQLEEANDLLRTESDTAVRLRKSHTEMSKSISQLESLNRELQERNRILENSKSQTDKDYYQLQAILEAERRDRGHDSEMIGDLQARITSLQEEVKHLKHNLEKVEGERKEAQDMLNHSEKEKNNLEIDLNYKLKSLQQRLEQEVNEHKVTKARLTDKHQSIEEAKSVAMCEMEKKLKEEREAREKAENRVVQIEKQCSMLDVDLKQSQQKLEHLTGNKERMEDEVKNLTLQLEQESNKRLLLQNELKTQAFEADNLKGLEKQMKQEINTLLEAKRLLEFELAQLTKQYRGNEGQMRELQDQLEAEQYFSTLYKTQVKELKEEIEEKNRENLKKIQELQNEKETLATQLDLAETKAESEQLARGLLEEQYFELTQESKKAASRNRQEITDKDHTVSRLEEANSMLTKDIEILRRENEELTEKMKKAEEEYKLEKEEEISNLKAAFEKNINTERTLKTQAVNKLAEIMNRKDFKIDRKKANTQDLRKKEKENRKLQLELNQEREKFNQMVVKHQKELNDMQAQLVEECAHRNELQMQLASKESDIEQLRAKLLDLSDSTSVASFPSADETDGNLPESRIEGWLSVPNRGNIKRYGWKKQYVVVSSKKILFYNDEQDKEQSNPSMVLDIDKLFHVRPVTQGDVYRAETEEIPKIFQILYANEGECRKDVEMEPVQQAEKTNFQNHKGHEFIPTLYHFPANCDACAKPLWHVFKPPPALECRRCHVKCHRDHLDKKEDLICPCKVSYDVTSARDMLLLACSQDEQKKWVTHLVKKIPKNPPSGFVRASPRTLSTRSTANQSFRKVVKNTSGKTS
Sequence of UniProt Q16584 (whole entry, looked up): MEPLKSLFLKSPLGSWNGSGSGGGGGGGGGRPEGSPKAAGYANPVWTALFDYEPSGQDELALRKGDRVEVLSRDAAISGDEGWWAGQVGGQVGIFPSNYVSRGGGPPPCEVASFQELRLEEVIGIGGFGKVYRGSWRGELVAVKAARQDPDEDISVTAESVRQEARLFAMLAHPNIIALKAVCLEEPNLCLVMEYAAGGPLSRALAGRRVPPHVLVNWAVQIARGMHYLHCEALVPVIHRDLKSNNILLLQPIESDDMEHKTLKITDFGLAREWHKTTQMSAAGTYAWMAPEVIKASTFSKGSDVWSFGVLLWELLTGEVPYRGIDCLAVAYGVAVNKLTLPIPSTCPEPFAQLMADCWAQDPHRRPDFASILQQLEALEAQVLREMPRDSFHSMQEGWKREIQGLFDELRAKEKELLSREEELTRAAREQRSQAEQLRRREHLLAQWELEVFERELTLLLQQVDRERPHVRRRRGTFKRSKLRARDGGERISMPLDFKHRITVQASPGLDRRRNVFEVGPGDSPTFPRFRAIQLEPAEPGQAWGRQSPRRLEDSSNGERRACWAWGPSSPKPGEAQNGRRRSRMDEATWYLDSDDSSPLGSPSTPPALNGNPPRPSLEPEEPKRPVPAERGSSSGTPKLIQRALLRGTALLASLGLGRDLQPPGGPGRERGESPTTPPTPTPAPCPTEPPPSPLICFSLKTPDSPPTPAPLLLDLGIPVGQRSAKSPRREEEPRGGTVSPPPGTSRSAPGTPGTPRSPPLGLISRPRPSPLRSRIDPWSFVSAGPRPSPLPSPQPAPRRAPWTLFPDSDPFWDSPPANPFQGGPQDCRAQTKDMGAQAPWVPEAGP
Sequence of UniProt Q96BR1 (whole entry, looked up): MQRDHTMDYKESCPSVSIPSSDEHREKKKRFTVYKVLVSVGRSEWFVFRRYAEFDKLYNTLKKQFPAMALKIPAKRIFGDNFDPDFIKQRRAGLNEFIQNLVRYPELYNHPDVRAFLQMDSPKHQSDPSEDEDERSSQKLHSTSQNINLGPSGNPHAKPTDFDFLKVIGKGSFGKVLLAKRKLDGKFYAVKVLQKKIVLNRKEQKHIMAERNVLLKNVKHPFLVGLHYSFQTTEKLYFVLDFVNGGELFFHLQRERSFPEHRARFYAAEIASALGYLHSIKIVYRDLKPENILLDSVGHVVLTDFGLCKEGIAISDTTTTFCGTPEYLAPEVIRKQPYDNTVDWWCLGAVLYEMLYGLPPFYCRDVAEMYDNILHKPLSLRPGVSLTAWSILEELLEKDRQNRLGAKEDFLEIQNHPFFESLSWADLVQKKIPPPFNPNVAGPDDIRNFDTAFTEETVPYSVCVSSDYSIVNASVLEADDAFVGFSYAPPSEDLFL

Series 1 — observed: enzyme activity; action: inhibitor; tested at: 0.5 µM; relative to: control; measurement: remaining activity
Target: Homeodomain-interacting protein kinase 2 (HIPK2, Homo sapiens, UniProt Q9H2X6)
Sequence of UniProt Q9H2X6 (whole entry, looked up): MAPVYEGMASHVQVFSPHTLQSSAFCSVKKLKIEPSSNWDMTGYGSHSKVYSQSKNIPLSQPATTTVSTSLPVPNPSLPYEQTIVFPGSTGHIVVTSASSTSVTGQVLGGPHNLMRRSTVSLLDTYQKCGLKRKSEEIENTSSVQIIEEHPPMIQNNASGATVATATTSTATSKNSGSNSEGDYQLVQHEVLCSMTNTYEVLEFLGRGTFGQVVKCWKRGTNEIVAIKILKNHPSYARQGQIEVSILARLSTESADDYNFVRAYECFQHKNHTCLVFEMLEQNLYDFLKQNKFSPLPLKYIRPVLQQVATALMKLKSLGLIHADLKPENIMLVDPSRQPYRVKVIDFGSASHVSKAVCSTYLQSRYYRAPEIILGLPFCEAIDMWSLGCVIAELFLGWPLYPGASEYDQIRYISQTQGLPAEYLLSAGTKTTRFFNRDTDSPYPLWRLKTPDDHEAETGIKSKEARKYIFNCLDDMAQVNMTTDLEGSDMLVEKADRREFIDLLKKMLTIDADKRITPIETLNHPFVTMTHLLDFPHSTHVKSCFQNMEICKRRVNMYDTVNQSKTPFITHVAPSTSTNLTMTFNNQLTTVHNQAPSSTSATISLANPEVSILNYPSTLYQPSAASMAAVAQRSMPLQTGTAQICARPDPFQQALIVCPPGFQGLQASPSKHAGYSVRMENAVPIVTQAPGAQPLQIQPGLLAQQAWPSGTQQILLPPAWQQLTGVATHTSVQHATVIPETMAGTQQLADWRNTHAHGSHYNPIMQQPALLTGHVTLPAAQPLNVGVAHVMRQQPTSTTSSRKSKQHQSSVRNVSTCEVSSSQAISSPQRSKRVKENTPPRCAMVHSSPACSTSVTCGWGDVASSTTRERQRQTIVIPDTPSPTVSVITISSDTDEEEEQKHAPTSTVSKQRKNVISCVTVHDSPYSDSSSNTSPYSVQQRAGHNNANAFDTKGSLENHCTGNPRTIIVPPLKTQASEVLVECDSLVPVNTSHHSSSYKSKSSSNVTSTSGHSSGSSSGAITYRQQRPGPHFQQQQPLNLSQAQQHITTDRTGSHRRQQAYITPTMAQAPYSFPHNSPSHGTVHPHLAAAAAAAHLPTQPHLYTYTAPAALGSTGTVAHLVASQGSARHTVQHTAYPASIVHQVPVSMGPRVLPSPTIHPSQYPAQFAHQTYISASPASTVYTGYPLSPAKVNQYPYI
c1ccc(-c2n[nH]c3c2oc2ccccc23)cc1: 99.6%
O=Nc1c(-c2c(O)[nH]c3cc(Br)ccc23)[nH]c2ccccc12: 96.2%
O=C1Cc2c([nH]c3ccc(Br)cc23)-c2ccccc2N1: 107%
O=C1Nc2ccc(Br)cc2/C1=C/c1cc2c([nH]1)CCCC2: 91%
O=C1NC(=O)c2c1c1c3ccccc3[nH]c1n1cncc21: 94.4%

Series 2 — observed: cell-free assay; method: competition with immobilised ligand; tested at: 1 µM; measurement: remaining binding
SMILES: CN(C(=O)c1ccccc1)c1cc(N(C)c2ccc3c(c2)CCc2ccc(C(=O)NCCN4CCOCC4)cc2C3=O)ccc1F
MAP3K11 (Homo sapiens, UniProt Q16584): 92%
KIT (Homo sapiens, UniProt P10721): 100%
EGFR (Homo sapiens, UniProt P00533, del752-759): 100%
Tyrosine-protein kinase ABL1, non-phosphorylated (ABL1, Homo sapiens, UniProt P00519): 87%
CDKL5 (Homo sapiens, UniProt O76039): 100%
EPHA5 (Homo sapiens, UniProt P54756): 100%
ROCK1 (Homo sapiens, UniProt Q13464): 100%
LATS2 (Homo sapiens, UniProt Q9NRM7): 98%
YES1 (Homo sapiens, UniProt P07947): 100%
BMX (Homo sapiens, UniProt P51813): 50%
RIPK1 (Homo sapiens, UniProt Q13546): 97%
SGK3 (Homo sapiens, UniProt Q96BR1): 93%
Ribosomal protein S6 kinase alpha-3, N-terminal kinase domain (RPS6KA3, Homo sapiens, UniProt P51812): 95%

Series 3 — method: protein binding microarray; form: double-stranded DNA, one strand shown; sample: in vitro; tested at: not given; relative to: not given; direction: higher = stronger binding; measurement: E-score
Target: Histone acetyltransferase KAT6A, winged helix 2, GST fusion (KAT6A, Homo sapiens, UniProt Q92794, residues 85-181)
Notes: 8-mer, flanks averaged, mean of 2 arrays, mostly near background
Residues (chain): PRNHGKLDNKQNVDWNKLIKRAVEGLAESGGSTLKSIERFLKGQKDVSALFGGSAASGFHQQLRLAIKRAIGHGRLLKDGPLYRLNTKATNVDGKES
GACACGAC: -0.0573
ATAGAGCG: -0.0766
CAAGGGAA: -0.0193
CAAATATA: -0.0695
CCCTGTCA: -0.0387
ACCACAGC: 0.0272
ATTTCAAA: 0.143
CTGCTGGA: 0.082

Series 4 — method: RNA Bind-n-Seq; form: RNA; sample: in vitro; tested at: 20 nM; notes: 6-mer, flanks averaged, single round; together with: 150 mM LiCl; relative to: input library; direction: higher = stronger binding; measurement: 6-mer enrichment (R)
Target: TAR DNA-binding protein 43, full length, His tag (TARDBP, Homo sapiens, UniProt Q13148, residues 1-414)
ACUUGC: 0.89
CCUCUU: 1.02
UCCCUC: 1.04
CCUCAA: 0.877
UUCGAG: 0.899
UCCUAG: 0.845
CAGCAA: 0.868
UUCCCA: 0.938

Excerpt of the above (series 2):
EPHA5 (Homo sapiens, UniProt P54756): 100%
LATS2 (Homo sapiens, UniProt Q9NRM7): 98%
BMX (Homo sapiens, UniProt P51813): 50%
EGFR (Homo sapiens, UniProt P00533, del752-759): 100%
